{"data": "Results from different studies", "PIN1": "Peptidyl-prolyl cis-trans isomerase NIMA-interacting 1 (PIN1, Homo sapiens, UniProt Q13526)", "Beta-lactamase CTX-M-27": "Beta-lactamase CTX-M-27 (Escherichia coli, UniProt Q840M4)", "note": "Compare with care: the assays were run in different laboratories. Numbers after ± are the reported error.", "chain of UniProt Q13526 (whole entry, looked up)": "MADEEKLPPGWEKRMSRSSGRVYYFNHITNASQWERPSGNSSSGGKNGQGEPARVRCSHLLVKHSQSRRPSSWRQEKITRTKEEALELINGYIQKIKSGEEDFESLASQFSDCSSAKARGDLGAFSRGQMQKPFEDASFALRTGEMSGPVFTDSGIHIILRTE", "chain of UniProt P16947 (whole entry, looked up)": "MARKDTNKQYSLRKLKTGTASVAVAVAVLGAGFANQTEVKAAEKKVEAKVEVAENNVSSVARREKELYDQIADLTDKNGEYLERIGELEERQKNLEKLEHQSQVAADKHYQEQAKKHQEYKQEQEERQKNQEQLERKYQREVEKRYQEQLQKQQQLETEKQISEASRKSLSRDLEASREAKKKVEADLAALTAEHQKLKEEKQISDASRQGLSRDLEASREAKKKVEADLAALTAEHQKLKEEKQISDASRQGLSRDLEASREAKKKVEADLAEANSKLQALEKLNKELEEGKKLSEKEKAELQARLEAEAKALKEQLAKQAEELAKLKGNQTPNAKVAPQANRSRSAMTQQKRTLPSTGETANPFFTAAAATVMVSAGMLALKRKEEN", "chain of UniProt P02671 (whole entry, unmodified, looked up)": "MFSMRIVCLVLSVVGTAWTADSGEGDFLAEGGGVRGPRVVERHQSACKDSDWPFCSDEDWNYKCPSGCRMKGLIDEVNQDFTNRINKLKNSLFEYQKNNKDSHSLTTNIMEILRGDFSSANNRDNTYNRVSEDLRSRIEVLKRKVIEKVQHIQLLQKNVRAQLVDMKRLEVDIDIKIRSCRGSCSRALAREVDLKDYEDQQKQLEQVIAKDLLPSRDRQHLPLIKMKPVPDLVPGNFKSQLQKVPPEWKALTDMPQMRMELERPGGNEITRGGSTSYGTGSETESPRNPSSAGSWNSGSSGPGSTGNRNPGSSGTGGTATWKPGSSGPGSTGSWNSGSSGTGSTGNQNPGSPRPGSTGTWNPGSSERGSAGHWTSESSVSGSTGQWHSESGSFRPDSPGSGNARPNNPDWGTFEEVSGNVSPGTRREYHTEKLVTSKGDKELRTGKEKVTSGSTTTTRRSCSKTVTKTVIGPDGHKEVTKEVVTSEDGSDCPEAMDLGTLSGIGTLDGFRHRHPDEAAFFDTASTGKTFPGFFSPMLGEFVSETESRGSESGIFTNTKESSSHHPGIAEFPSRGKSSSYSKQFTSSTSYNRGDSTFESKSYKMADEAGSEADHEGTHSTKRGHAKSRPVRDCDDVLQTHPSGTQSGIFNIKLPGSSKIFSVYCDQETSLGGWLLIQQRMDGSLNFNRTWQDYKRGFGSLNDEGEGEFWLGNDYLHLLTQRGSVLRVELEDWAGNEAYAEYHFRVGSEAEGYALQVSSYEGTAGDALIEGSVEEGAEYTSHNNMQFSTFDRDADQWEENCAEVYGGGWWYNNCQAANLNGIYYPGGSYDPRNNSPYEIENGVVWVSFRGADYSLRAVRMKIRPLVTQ", "chain of UniProt Q9NYW4 (whole entry, looked up)": "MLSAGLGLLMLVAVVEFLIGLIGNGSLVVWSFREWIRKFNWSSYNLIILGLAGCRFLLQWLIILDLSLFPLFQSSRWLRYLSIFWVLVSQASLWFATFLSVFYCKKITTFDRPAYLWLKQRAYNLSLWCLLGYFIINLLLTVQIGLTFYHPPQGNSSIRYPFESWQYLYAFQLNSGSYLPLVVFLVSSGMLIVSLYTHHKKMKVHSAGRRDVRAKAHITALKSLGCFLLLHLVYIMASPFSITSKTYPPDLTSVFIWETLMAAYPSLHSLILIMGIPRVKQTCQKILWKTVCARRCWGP", "chain of UniProt O15392 (whole entry, unmodified, looked up)": "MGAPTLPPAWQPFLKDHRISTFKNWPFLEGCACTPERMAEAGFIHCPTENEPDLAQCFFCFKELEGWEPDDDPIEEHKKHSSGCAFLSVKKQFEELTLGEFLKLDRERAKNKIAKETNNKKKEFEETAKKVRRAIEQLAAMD", "chain of UniProt P02675 (whole entry, unmodified, looked up)": "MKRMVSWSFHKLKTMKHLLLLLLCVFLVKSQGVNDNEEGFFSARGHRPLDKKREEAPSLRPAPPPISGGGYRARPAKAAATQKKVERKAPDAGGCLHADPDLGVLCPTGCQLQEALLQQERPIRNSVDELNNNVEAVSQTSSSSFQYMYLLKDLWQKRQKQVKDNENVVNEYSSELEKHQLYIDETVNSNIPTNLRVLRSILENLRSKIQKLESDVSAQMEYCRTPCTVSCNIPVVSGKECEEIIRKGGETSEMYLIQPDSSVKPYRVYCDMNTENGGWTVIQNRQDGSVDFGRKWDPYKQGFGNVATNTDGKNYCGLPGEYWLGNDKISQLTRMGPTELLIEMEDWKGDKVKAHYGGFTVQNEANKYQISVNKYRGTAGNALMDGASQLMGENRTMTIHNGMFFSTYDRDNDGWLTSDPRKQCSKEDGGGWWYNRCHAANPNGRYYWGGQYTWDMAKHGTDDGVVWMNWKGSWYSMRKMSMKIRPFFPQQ", "chain of UniProt Q09472 (whole entry, unmodified, looked up)": "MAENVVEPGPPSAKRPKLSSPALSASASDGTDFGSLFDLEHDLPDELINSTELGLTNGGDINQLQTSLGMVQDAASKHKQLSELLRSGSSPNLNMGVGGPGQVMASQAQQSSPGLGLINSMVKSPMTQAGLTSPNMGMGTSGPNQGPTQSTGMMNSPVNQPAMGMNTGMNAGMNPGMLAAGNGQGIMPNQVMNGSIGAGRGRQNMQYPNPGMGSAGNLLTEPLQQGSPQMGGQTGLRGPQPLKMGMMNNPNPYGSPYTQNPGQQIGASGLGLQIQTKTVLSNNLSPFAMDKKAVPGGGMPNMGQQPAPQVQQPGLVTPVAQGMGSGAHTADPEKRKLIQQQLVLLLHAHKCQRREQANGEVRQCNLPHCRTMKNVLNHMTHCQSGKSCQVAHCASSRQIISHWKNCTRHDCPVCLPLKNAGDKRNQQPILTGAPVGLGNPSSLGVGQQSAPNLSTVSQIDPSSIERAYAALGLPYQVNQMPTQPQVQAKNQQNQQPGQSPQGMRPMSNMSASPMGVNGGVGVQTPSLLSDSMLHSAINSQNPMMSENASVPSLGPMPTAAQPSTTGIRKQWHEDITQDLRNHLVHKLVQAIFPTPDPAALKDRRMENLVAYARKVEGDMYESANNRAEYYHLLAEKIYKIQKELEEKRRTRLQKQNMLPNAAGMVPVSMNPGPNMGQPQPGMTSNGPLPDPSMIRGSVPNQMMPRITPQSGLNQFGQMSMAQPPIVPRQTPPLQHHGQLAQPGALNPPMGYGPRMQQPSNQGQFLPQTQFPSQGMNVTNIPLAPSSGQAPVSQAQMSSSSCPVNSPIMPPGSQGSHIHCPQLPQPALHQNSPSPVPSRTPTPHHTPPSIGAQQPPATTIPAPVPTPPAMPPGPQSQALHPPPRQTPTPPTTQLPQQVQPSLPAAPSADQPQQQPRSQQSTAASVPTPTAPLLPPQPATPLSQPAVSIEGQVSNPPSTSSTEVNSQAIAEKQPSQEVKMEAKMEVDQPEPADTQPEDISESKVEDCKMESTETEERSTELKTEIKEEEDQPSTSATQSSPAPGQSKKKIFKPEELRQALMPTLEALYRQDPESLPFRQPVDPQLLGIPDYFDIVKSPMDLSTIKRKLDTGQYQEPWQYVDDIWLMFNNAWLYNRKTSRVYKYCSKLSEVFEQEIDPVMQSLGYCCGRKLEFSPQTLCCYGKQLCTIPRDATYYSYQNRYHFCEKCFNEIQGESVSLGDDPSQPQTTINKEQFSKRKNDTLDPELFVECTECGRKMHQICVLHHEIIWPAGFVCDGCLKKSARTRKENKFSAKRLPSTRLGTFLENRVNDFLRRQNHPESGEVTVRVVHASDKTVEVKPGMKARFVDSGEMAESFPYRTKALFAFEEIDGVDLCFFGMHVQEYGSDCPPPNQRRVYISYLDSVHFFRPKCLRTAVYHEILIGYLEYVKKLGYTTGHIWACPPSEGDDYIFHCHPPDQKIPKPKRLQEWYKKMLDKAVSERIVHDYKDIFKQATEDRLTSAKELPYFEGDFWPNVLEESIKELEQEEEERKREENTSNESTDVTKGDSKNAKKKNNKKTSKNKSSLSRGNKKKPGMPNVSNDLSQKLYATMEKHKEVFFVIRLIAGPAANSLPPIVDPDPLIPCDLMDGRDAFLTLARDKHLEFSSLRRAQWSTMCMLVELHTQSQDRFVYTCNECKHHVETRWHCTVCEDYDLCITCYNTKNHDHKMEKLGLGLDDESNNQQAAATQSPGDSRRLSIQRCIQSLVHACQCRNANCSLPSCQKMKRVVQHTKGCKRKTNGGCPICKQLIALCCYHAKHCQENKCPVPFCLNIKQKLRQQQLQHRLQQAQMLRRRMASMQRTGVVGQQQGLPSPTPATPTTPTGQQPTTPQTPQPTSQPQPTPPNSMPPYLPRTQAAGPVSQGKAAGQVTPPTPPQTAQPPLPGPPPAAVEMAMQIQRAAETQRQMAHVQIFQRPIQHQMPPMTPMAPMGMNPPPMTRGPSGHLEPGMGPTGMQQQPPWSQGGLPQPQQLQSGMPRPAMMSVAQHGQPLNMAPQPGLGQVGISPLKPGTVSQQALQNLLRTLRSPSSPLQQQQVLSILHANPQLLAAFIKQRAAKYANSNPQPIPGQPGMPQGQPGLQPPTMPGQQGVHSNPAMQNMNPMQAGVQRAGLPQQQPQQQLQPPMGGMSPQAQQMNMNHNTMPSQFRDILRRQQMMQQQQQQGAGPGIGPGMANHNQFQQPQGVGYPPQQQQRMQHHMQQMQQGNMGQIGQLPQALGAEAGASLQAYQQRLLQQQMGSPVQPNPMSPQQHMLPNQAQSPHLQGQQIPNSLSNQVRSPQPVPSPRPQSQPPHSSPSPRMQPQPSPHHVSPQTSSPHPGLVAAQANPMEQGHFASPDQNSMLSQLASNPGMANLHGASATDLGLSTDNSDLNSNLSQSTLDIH", "chain of UniProt Q99828 (whole entry, looked up)": "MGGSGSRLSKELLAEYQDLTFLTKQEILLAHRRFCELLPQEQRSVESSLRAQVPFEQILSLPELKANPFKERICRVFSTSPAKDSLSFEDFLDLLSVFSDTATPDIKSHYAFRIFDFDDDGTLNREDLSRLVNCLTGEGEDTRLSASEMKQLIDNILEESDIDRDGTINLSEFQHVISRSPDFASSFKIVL"}
{"SMILES": "COC(=O)[C@H](Cc1ccccc1)NC(=O)[C@@H]1CCCN1C(=O)[C@@H](NC(=O)[C@H](C)NC(C)=O)C(C)C", "target": "PIN1", "test": "binding", "conditions": "pH 7.4", "Kd [µM]": 6.11}
{"SMILES": "C[C@@H](O)[C@H](NC(=O)[C@@H]1CCCN1C(=O)[C@H](CO)NC(=O)[C@H](Cc1ccc(O)cc1)NC(=O)[C@H](COP(=O)(O)O)NC(=O)[C@@H]1CCCN1C(=O)[C@H](COP(=O)(O)O)NC(=O)[C@@H](NC(=O)[C@@H]1CCCN1C(=O)[C@H](CO)NC(=O)[C@H](Cc1ccc(O)cc1)NC(=O)[C@H](CO)NC(=O)[C@@H]1CCCN1C(=O)[C@@H](N)CO)[C@@H](C)O)C(=O)N[C@@H](COP(=O)(O)O)C(=O)N1CCC[C@H]1C(=O)N[C@@H](COP(=O)(O)O)C(=O)N[C@@H](Cc1ccc(O)cc1)C(=O)N[C@@H](CO)C(=O)O", "target": "Regulation of nuclear pre-mRNA domain-containing protein 2 (Homo sapiens, UniProt Q5VT52)", "test": "binding, ITC", "conditions": "pH 7.5", "Kd [µM]": "> 1000"}
{"SMILES": "c1cnc2c(c1)c1nccnc1c1cccnc12", "target": "TAS2R5 (Homo sapiens, UniProt Q9NYW4)", "test system": "HEK293 cell membranes", "Kd [µM]": "2.5 ± 1.6"}
{"SMILES": "CC(C)[C@H](NC(=O)[C@H](CCC(N)=O)NC(=O)CNC(=O)[C@H](CC(N)=O)NC(=O)[C@H](C)NC(=O)[C@H](Cc1c[nH]cn1)NC(=O)[C@@H](NC(=O)[C@@H](NC(=O)[C@@H](NC(=O)[C@H](CC(N)=O)NC(=O)[C@H](Cc1ccc(O)cc1)NC(=O)[C@H](C)NC(=O)[C@H](CC(N)=O)NC(=O)[C@@H](NC(=O)[C@@H](N)CCC(=O)O)[C@@H](C)O)C(C)C)[C@@H](C)O)[C@@H](C)O)C(=O)N[C@@H](CO)C(=O)N[C@@H](Cc1ccc(O)cc1)C(=O)NCC(=O)N[C@@H](C)C(=O)N[C@@H](CCCNC(=N)N)C(=O)N1CCC[C@H]1C(=O)N[C@H](C(=O)N[C@@H](Cc1ccc(O)cc1)C(=O)N[C@@H](CCCCN)C(=O)N[C@@H](CCCCN)C(=O)N1CCC[C@H]1C(=O)N[C@@H](CO)C(=O)O)[C@@H](C)O", "target": "FGA/FGB/FGG, D fragment (Homo sapiens, UniProt P02671+P02675+P02679, del433-453)", "test": "isothermal titration calorimetry", "conditions": "pH 7.4, 27 °C", "Kd [µM]": "0.0772 ± 0.0086"}
{"SMILES": "N[C@@H](Cc1ccc(O)c(I)c1)C(=O)O", "target": "Iodotyrosine deiodinase (IYD, Thermotoga neapolitana, UniProt B9K712, M41F)", "test": "FMN fluorescence quenching", "conditions": "25 °C, M41F variant", "Kd [µM]": "0.5 ± 0.1"}
{"SMILES": "N=C(N)NCCC[C@H](NC(=O)[C@H](Cc1ccccc1)NC(=O)[C@@H]1CCCN1C(=O)[C@H](CO)NC(=O)[C@H](Cc1ccccc1)NC(=O)CNC(=O)[C@@H]1CCCN1C(=O)[C@@H]1CCCN1C(=O)[C@@H](N)CCCNC(=N)N)C(=O)N[C@@H](CCCCNS(=O)(=O)c1ccc(C2=c3cc4c5c(c3Oc3c2cc2c6c3CCCN6CCC2)CCC[N+]=5CCC4)c(S(=O)(=O)[O-])c1)C(=O)O", "target": "Oligopeptide-binding protein OppA (oppA, Lactococcus lactis subsp. lactis, UniProt Q07741)", "test": "binding, fluorescence anisotropy", "conditions": "pH 6.5, 37 °C, with: dye-labelled peptide", "Kd [µM]": "26 ± 1"}
{"SMILES": "CC(C)P(=[Se])(NP(=[Se])(C(C)C)C(C)C)C(C)C", "target": "Alpha-amylase (Bacillus subtilis, UniProt P00691)", "test": "fluorescence quenching", "conditions": "304 K", "Kd [µM]": 1390}
{"SMILES": "COC(=O)[C@H](Cc1ccccc1)NC(=O)[C@@H]1CCCN1C(=O)[C@H](CO)NC(=O)[C@H](C)NC(C)=O", "target": "PIN1", "test": "binding", "conditions": "pH 7.4", "Kd [µM]": 4.5}
{"SMILES": "C[C@H](NC(=O)[C@@H](N)Cc1ccc(O)cc1)C(=O)NCC(=O)N[C@@H](COP(=O)(O)O)C(=O)N[C@H](C(=O)N[C@@H](CC(=O)O)C(=O)N[C@@H](CCC(=O)O)C(=O)N[C@@H](CC(N)=O)C(=O)N[C@H](C(=O)N[C@@H](CC(=O)O)C(=O)N[C@@H](CO)C(=O)N[C@@H](CCC(=O)O)C(=O)O)[C@@H](C)O)[C@@H](C)OP(=O)(O)O", "target": "Bifunctional polynucleotide phosphatase/kinase, FHA domain (Homo sapiens, UniProt Q96T60)", "test": "binding, reverse ITC", "conditions": "FHA domain", "Kd [µM]": 2.23}
{"SMILES": "C[C@H](N)C(=O)N[C@@H](CCCNC(=N)N)C(=O)N[C@H](C(=O)N[C@@H](CCCCN)C(=O)N[C@@H](CCC(N)=O)C(=O)N[C@H](C(=O)N[C@@H](C)C(=O)N[C@@H](CCCNC(=N)N)C(=O)N[C@@H](CCCCN)C(=O)N[C@@H](CO)C(=O)N[C@H](C(=O)NCC(=O)O)[C@@H](C)O)[C@@H](C)O)[C@@H](C)OP(=O)(O)O", "target": "BIRC5 (Homo sapiens, UniProt O15392, H80R)", "test": "binding, ITC", "conditions": "pH 6.8", "Kd [µM]": 26.3}
{"SMILES": "CN1C(=O)C2(Cc3ccc(CC45SSC(CO)(C(=O)N4C)N(C)C5=O)cc3)SSC1(CO)C(=O)N2C (racemic)", "target": "Histone acetyltransferase p300, CH1 domain (EP300, Homo sapiens, UniProt Q09472)", "test": "surface plasmon resonance", "conditions": "DTT 100 µM", "Kd [µM]": 0.75}
{"SMILES": "CSCC[C@H](NC(=O)[C@H](C)NC(=O)CNC(=O)[C@H](Cc1ccc(O)cc1)NC(=O)[C@H](Cc1c[nH]c2ccccc12)NC(=O)[C@H](Cc1ccccc1)NC(=O)[C@H](CO)NC(=O)CNC(=O)CNC(=O)[C@H](CC(=O)O)NC(=O)[C@H](CCC(=O)O)NC(=O)[C@H](CCC(N)=O)NC(=O)[C@@H]1CCCN1C(=O)[C@H](CCCNC(=N)N)NC(=O)[C@H](CCCNC(=N)N)NC(=O)[C@H](CCCNC(=N)N)NC(=O)[C@H](CCC(N)=O)NC(=O)[C@H](CCCNC(=N)N)NC(=O)[C@H](CCCNC(=N)N)NC(=O)[C@H](CCCCN)NC(=O)[C@H](CCCCN)NC(=O)[C@H](CCCNC(=N)N)NC(=O)CN)C(=O)N[C@@H](CCCCN)C(=O)N[C@@H](C)C(=O)N[C@@H](CC(C)C)C(=O)N[C@@H](Cc1ccc(O)cc1)C(=O)NCC(N)=O", "target": "CIB1 (Homo sapiens, UniProt Q99828)", "test": "peptide binding, inhibitor, TR-FRET competition", "conditions": "pH 7.5, 1 mM calcium, with: 30 nM Alexa647-labelled peptide", "Kd [µM]": "0.192 ± 0.017"}
{"SMILES": "CC(C)C[C@H](NC(=O)[C@@H]1CSSC[C@@H]2NC(=O)[C@H](CC(N)=O)NC(=O)[C@@H](N)CSSC[C@H](NC(=O)[C@H](CC(C)C)NC(=O)[C@H](Cc3ccccc3)NC(=O)[C@H]([C@@H](C)O)NC(=O)[C@H](CCC(=O)O)NC(=O)[C@@H]3CCCN3C(=O)[C@H](C)NC(=O)[C@H](CCCCN)NC2=O)C(=O)N[C@@H](Cc2ccc(O)cc2)C(=O)N[C@@H](Cc2c[nH]c3ccccc23)C(=O)N[C@@H](CCCNC(=N)N)C(=O)N1)C(=O)N[C@@H](CCC(N)=O)C(N)=O", "target": "Protein Mdm4, residues 24-108 (MDM4, Homo sapiens, UniProt O15151)", "test": "binding, SPR competition", "conditions": "synthetic MDMX 24-108, with: immobilized p53 peptide 15-29", "Kd [µM]": "0.018 ± 0.0023"}
{"SMILES": "CCCCCCCCCCCCCC(=O)NCC(=O)N[C@@H](CS)C(=O)N[C@H](C(=O)N[C@@H](CC(C)C)C(=O)N[C@@H](CO)C(=O)N[C@@H](C)C(=O)N[C@@H](CCC(=O)O)C(=O)N[C@@H](CC(=O)O)C(=O)N[C@@H](CCCCN)C(=O)O)[C@@H](C)O", "target": "CB1 cannabinoid receptor-interacting protein 1 (Cnrip1, Rattus norvegicus, UniProt Q5M7A7)", "test": "binding, fluorescence polarization", "conditions": "30 min, pH 7.5, room temperature", "Kd [µM]": "21.2 ± 2.3"}
{"SMILES": "O=C(Nc1cccc(-c2nn[nH]n2)c1)c1cc(-c2cccnc2)cc(C(F)(F)F)c1", "target": "Beta-lactamase CTX-M-27", "test": "surface plasmon resonance", "conditions": "25 °C", "Kd [µM]": "3.85 ± 0.05"}
{"SMILES": "CC[C@H](C)[C@H](NC(=O)[C@H](CCCCN)NC(=O)[C@H](CCC(=O)O)NC(=O)[C@H](CCCCN)NC(=O)[C@H](CO)NC(=O)[C@H](CCCCN)NC(=O)[C@H](CCCNC(=N)N)NC(=O)[C@H](Cc1ccccc1)NC(=O)[C@H](Cc1ccccc1)NC(=O)[C@H](CC(=O)O)NC(=O)CNC(=O)[C@H](CC(C)C)NC(=O)[C@@H](N)CC(C)C)C(=O)NCC(=O)N[C@@H](CCCCN)C(=O)N[C@@H](CCC(=O)O)C(=O)N[C@@H](Cc1ccccc1)C(=O)N[C@@H](CCCCN)C(=O)N[C@@H](CCCNC(=N)N)C(=O)N[C@H](C(=O)N[C@H](C(=O)N[C@@H](CCC(N)=O)C(=O)N[C@@H](CCCNC(=N)N)C(=O)N[C@H](C(=O)N[C@@H](CCCCN)C(=O)N[C@@H](CC(=O)O)C(=O)N[C@@H](Cc1ccccc1)C(=O)N[C@@H](CC(C)C)C(=O)N[C@@H](CCCNC(=N)N)C(=O)N[C@@H](CC(N)=O)C(=O)N[C@@H](CC(C)C)C(=O)N[C@H](C(=O)N1CCC[C@H]1C(=O)N[C@@H](CCCNC(=N)N)C(=O)N[C@H](C(=O)N[C@@H](CCC(=O)O)C(=O)N[C@@H](CO)C(=O)O)[C@@H](C)O)C(C)C)[C@@H](C)CC)C(C)C)[C@@H](C)CC", "target": "M protein, serotype 49 (emm49, Streptococcus pyogenes serotype M49, UniProt P16947)", "test": "binding, surface plasmon resonance", "test system": "Streptococcus pyogenes, M49", "conditions": "with: immobilized cathelicidin", "Kd [µM]": 62.7}
{"SMILES": "O=C(Nc1cccc(-c2nn[nH]n2)c1)c1cc(-c2ncc[nH]2)cc(C(F)(F)F)c1", "target": "Beta-lactamase CTX-M-27", "test": "surface plasmon resonance", "conditions": "25 °C", "Kd [µM]": "1.33 ± 0.03"}
{"SMILES": "CC[C@H](C)[C@H](NC(=O)CNC(=O)[C@H](CCCNC(=N)N)NC(=O)[C@H](CCCCN)NC(=O)CNC(=O)[C@H](CC(N)=O)NC(=O)CNC(=O)CNC(=O)CNC(=O)[C@H](CC(C)C)NC(=O)[C@H](C)NC(=O)CNC(=O)[C@H](Cc1c[nH]c2ccccc12)NC(=O)[C@H](Cc1ccc(O)cc1)NC(=O)CNC(=O)[C@H](CCCNC(=N)N)NC(=O)[C@H](CCSC)NC(=O)CNC(=O)[C@H](CCCCN)NC(=O)[C@H](CC(N)=O)NC(=O)[C@H](Cc1ccccc1)NC(=O)[C@H](CCCCN)NC(=O)[C@@H](N)CC(N)=O)C(=O)N[C@@H](CCSC)C(=O)NCC(=O)N[C@@H](Cc1ccc(O)cc1)C(=O)N[C@@H](CC(=O)O)C(=O)O", "target": "ERBB2 (Homo sapiens, UniProt P04626)", "test": "binding, SPR", "Kd [µM]": 0.293}
{"SMILES": "O=C(Nc1cccc(-c2nn[nH]n2)c1)c1cc(-c2ccoc2)cc(C(F)(F)F)c1", "target": "Beta-lactamase CTX-M-27", "test": "surface plasmon resonance", "conditions": "25 °C", "Kd [µM]": "3.28 ± 0.07"}
{"SMILES": "O=C(CCCN1CCC2(CC1)C(=O)NCN2c1ccccc1)N(Cc1cccs1)c1ccccc1", "target": "PDE6D (Homo sapiens, UniProt O43924)", "test": "binding", "Kd [µM]": "1.48 ± 0.197"}
